Measured values gathered from unrelated publications.
A part holds a random share of what one study measured.

Sample 1
Target: Histone acetyltransferase KAT6A, winged helix 2, GST fusion (KAT6A, Homo sapiens, UniProt Q92794, residues 85-181)
Technique: protein binding microarray
Form: double-stranded DNA, one strand shown
Matrix: in vitro
Concentration: not given
Setting: 8-mer, flanks averaged, mean of 2 arrays, mostly near background
Reference: not given
Reading: higher = stronger binding
Residues (chain): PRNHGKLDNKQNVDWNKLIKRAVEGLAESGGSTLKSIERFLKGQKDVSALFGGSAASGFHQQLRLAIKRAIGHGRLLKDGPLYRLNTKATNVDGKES
| Strand | E-score |
| --- | --- |
| CACCGTTC | -0.0309 |
| GATGGAGC | 0.0793 |
| AATGGAAC | 0.0356 |
| ATTGTGCG | -0.00296 |
| CCGACACG | 0.0316 |
| CGTTTTGC | 0.111 |

Sample 2
Target: Interferon regulatory factor 5, full length, phosphomimetic (IRF5, Homo sapiens, UniProt Q13568-2, residues 1-514, S451D/S453D/S456D/S462D)
Technique: protein-binding microarray
Form: double-stranded DNA, one strand shown
Matrix: in vitro
Concentration: 940 nM top
Setting: 60-bp whole probe
Together with: salmon DNA 0.4 mg/ml
Reference: random background probes
Reading: higher = stronger binding
All sequences stand within: GCCTAGCAC … GTCTTGATTCGCTTGACGCTGCTG
| Strand | fitted relative affinity [z-score] |
| --- | --- |
| ATAGGTCTCCTACTGCTTTAGTGCTAG | -0.0223 |
| GACGGTTTCAACTTTCGGGACGTGCTA | 3.16 |
| TTAGGTTTCGTGTATCGGTTAGTGCTA | 7.34 |
| GAGGGACTGCTTATCCTGACGTGCTAG | -0.533 |
| TTAGGTCTCGGTCTCGGTTCGTGCTAG | 5.17 |
| GACGATCTCAGGATCGAGACGTGCTAG | -0.412 |

Sample 3
Target: Sal-like protein 4, full length isoform B (SALL4, Homo sapiens, UniProt Q9UJQ4-2, residues 1-616)
Technique: universal PBM
Form: double-stranded DNA, one strand shown
Matrix: in vitro
Concentration: not given
Setting: 8-mer, flanks averaged, mean of replicates
Reading: higher = stronger binding
Construct (chain): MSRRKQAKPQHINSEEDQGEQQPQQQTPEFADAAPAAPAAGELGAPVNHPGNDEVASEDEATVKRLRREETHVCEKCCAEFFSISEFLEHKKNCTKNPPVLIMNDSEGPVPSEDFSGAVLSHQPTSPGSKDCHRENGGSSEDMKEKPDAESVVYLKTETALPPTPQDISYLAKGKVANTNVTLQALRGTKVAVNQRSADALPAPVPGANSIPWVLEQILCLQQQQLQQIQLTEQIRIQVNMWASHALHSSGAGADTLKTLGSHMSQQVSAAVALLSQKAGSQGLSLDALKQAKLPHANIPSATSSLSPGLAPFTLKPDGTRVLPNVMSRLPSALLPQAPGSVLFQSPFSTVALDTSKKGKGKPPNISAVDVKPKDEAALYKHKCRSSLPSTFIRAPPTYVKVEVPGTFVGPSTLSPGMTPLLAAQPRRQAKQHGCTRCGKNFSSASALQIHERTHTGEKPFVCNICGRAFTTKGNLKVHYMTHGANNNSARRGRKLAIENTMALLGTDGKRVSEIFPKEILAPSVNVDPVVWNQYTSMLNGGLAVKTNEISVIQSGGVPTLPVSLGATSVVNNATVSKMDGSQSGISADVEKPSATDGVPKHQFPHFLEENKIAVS
| Strand | E-score |
| --- | --- |
| GGTAAAAC | 0.021 |
| CGAATCCG | -0.233 |
| CAGGTGTA | -0.0702 |
| ACTTTGAA | 0.211 |
| GGGGCAGA | -0.138 |

Mixed results
| Substance | target | assay | system | setting | how to read | quantity | result |
| --- | --- | --- | --- | --- | --- | --- | --- |
| PhoQ, residues 284 288 289 292 302 303 SNSSNI | PhoP, residues 12 14 15 18 19 AQALL (Escherichia coli, UniProt P23836) | Sort-seq, refers to: YFP reporter | E. coli | PhoQ-PhoP variant library, together with: 10 µM Mg2+ | reference: high Mg2+ state, higher = stronger signaling | fold induction | 14.3 |
